# Published values of several laboratories.
# Numbered parts are unrelated; each lists some results of a single study.
# UniProt P42336, sequence (whole entry, unmodified, looked up): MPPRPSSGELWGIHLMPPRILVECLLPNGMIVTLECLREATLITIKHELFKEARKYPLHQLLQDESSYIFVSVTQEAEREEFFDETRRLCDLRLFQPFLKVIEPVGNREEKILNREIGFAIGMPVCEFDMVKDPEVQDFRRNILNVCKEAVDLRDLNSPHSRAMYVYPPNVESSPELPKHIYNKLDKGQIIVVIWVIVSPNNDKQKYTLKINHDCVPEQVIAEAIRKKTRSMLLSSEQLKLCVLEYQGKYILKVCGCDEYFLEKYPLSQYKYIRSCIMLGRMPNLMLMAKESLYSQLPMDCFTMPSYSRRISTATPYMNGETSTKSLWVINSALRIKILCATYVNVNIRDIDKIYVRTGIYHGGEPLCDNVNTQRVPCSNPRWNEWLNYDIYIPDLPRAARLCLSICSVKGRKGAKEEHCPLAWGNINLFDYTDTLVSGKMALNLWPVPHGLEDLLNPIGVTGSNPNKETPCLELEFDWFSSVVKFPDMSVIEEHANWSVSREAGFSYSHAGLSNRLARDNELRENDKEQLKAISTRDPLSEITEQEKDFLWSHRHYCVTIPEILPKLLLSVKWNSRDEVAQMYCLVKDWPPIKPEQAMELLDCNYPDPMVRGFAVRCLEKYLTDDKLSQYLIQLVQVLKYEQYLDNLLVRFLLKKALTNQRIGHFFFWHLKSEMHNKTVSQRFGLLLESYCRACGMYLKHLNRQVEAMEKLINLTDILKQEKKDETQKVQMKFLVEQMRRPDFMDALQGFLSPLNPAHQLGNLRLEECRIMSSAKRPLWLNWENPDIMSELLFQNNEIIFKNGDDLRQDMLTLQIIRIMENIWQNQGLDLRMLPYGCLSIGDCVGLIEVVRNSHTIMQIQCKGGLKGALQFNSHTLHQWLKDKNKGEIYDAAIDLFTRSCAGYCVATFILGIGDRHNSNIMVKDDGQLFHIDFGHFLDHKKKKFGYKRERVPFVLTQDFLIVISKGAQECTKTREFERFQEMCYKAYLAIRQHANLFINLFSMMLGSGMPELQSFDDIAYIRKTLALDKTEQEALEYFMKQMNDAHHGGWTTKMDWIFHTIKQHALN
# UniProt P46734, sequence (whole entry, looked up): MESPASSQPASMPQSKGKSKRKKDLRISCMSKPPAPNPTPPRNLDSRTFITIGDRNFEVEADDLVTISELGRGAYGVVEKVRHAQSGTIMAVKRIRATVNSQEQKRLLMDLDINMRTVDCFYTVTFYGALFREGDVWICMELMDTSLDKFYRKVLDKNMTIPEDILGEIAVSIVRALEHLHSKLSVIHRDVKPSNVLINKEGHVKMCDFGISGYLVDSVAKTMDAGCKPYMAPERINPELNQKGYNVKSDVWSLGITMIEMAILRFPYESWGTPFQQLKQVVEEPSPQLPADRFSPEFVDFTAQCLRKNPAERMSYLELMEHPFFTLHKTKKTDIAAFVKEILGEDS
# UniProt Q00536, sequence (whole entry, looked up): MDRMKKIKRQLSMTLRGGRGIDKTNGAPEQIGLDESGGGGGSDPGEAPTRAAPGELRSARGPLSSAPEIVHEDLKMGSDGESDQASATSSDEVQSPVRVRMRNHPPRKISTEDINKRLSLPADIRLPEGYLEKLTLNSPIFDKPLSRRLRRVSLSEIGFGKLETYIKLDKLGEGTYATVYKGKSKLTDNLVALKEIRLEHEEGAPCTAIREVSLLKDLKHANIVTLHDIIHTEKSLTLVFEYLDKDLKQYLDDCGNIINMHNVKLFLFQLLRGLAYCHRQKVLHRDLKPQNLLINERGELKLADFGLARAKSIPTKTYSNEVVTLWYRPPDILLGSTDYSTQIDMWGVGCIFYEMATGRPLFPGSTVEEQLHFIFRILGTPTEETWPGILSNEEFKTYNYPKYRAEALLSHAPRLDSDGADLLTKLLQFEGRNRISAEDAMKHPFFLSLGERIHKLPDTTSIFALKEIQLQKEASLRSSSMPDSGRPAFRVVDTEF
# UniProt P15735, sequence (whole entry, looked up): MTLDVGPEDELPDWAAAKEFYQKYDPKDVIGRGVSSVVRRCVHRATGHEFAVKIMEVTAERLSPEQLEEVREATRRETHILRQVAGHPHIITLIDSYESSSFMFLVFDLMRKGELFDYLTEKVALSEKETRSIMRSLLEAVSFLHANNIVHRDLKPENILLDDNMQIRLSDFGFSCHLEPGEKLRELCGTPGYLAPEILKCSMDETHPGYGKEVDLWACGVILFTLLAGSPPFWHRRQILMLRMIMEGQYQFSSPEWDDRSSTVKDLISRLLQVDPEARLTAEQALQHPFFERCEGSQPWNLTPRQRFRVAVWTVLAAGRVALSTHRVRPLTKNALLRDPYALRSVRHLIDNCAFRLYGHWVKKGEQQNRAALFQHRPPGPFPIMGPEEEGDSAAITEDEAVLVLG
# UniProt Q9NSY1, sequence (whole entry, looked up): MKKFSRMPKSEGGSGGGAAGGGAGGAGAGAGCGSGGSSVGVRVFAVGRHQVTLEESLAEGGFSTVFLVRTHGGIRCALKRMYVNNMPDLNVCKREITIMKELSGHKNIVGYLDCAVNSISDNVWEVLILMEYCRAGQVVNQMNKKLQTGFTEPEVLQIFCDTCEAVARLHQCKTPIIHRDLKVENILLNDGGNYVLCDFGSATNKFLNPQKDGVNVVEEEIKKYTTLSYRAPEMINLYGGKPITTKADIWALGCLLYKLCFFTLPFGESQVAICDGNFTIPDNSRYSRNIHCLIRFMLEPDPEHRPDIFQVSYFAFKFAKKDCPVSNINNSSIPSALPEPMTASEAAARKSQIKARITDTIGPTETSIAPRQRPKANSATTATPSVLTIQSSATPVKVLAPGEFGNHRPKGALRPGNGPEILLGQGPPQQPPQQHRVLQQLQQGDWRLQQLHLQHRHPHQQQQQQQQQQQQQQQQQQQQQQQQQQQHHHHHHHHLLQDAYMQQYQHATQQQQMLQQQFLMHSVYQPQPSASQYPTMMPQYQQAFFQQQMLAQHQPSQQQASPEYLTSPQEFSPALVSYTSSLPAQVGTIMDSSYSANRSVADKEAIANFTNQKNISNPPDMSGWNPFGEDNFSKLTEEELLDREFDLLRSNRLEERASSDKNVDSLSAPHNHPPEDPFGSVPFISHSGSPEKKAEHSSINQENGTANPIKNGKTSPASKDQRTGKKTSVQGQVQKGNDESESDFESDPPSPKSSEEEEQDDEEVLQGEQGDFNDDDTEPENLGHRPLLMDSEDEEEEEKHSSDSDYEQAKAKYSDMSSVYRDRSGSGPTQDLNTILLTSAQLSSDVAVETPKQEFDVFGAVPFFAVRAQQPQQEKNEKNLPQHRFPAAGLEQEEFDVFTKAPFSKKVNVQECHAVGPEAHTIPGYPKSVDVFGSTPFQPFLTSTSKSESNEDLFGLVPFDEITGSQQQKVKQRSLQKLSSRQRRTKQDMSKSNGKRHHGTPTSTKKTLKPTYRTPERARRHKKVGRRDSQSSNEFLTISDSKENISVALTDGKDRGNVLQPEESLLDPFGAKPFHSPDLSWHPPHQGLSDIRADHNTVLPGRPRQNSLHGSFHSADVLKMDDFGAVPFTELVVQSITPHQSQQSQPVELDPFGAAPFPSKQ

# Series 1
# Structure (SMILES): CC(C)n1cnc(-c2ccc(F)cc2)c1-c1ncc(C(=O)Nc2ccc(N3CCN(C)CC3)cc2)[nH]1
# Host: idiopathic pulmonary fibrosis patients
method,refers to,dose,notes,adverse event incidence [%]
phase 2a trial,immunoglobulins increased,60 mg once daily,grade 2,0
,,dose not given,ECG high voltage grade 5,0
phase 2a trial,ECG ST segment abnormal,60 mg once daily,grade 3,0
phase 2a trial,gingivitis,60 mg once daily,grade 3,0
phase 2a trial,liver injury,60 mg once daily,grade 1,0
phase 2a trial,carotid intima-media thickening,30 mg once daily,grade 2,0
phase 2a trial,weight decreased,dose not given,"grade 3, all arms pooled",0
phase 2a trial,synovitis,60 mg once daily,grade 2,0
phase 2a trial,general and administration site disorders,60 mg once daily,grade 5,0
phase 2a trial,allergic conjunctivitis,30 mg once daily,grade 4,0
phase 2a trial,gingivitis,60 mg once daily,grade 4,0
phase 2a trial,arthritis,60 mg once daily,grade 1,0
phase 2a trial,hydroxybutyrate dehydrogenase increased,60 mg once daily,grade 3,0

# Series 2
# Target: PAS domain-containing serine/threonine-protein kinase (PASK, Homo sapiens, UniProt Q96RG2)
# UniProt Q96RG2, sequence (whole entry, looked up): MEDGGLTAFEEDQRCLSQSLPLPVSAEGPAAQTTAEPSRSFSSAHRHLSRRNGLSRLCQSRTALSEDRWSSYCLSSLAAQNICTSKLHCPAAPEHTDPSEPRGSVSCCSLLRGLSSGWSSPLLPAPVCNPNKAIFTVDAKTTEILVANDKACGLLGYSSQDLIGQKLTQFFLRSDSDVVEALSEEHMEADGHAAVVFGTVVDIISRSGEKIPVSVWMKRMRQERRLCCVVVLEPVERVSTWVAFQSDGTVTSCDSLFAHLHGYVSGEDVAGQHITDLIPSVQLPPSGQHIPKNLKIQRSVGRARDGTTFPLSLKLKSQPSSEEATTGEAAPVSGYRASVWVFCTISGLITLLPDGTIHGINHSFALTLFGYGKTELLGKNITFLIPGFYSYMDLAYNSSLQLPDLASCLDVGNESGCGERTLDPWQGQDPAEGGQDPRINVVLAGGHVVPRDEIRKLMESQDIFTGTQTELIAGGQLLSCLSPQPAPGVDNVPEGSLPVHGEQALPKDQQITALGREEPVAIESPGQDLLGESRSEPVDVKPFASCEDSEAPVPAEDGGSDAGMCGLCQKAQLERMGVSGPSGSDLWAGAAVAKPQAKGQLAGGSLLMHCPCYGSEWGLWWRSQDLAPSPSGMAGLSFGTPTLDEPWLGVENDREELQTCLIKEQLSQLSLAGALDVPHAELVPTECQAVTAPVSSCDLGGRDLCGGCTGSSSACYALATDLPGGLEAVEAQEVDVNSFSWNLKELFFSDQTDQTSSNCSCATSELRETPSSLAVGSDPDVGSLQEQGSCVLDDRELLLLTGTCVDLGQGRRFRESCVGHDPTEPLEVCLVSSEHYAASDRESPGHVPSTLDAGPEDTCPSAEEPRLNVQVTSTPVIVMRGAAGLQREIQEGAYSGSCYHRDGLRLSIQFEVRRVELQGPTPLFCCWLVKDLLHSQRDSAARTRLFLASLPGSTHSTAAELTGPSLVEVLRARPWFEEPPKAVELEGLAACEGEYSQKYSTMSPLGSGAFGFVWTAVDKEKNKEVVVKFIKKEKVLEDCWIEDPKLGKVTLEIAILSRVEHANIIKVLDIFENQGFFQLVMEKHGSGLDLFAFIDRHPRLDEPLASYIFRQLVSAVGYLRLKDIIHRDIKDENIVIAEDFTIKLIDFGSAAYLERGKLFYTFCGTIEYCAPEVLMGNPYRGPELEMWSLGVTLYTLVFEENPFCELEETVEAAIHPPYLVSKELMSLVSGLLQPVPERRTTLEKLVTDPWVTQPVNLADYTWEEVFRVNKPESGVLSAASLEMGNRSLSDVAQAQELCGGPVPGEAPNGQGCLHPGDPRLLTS
# Observed: enzyme activity
# Action: inhibitor
# Concentration: 0.5 µM
# Baseline: control
Compound,remaining activity
Cc1cc2ncc(-c3ccccc3)nc2cc1C,82.1%
C[C@@H]1CCN(C(=O)CC#N)C[C@@H]1N(C)c1ncnc2[nH]ccc12,105%
CN([C@@H](Cc1ccc(OS(=O)(=O)c2cccc3cnccc23)cc1)C(=O)N1CCN(c2ccccc2)CC1)S(=O)(=O)c1cccc2cnccc12,103%
O=C1C(Cl)=C(N2C(=O)CCC2=O)C(=O)c2ccccc21,103%
O=C(Nc1cccc(Nc2nccc(Nc3cccc(C(F)(F)F)c3)n2)c1)C1CC1,106%
CCN(CC)CCNC(=O)c1c(C)[nH]c(/C=C2\C(=O)Nc3ccc(F)cc32)c1C,102%
Cc1nc2cc3nc(-c4cccs4)cnc3cc2n1C,110%
CCN(CC)C(=O)c1ccc(Nc2nc(OCC3CCCCC3)c3[nH]cnc3n2)cc1,103%
CCN(CC)CCNC(=O)c1c(C)[nH]c(/C=C2\C(=O)Nc3ccc(Cl)cc32)c1C,89.6%
Cc1cn(-c2cc(NC(=O)c3ccc(C)c(Nc4nccc(-c5cccnc5)n4)c3)cc(C(F)(F)F)c2)cn1,102%
Nc1cccc(-c2cc3c(Oc4cccc(O)c4)ncnc3[nH]2)c1,96.2%
CN(C)C[C@H]1CCn2c(c(C3=C(c4cn(C)c5ccccc45)C(=O)NC3=O)c3ccccc32)C1,93%
O=c1cc(-c2cccc3c2Sc2ccccc2S3)oc(N2CCOCC2)c1,101%
N#Cc1c(NC(=O)c2cccc3ccccc23)sc2c1CCCC2,98.3%
CCOc1nc(NC(=O)Cc2cc(OC)ccc2OC)cc(N)c1C#N,91.1%
COc1cc2c(cc1OC)-c1[nH]nc(Nc3cccc(F)c3)c1C2,93.3%
COc1cc2ncnc(Nc3cccc(Cl)c3)c2cc1OC,90.2%
O=C(NC(NC(=S)Nc1ccc(F)c([N+](=O)[O-])c1)C(Cl)(Cl)Cl)C(c1ccccc1)c1ccccc1 (stereo not drawn),104%
Ic1cccc(CSc2nnc(-c3ccncc3)o2)c1,100%
O=C1c2ccccc2-c2n[nH]c3cccc1c23,92.2%
c1ccc(-c2[nH]ncc2-c2ccnc3ccccc23)nc1,77.1%
COc1cc2ncnc(Nc3ccc(O)c(Br)c3)c2cc1OC,57.9%
c1ccc(-c2cnc(Nc3ccc(OCCN4CCCC4)cc3)s2)cc1,96.4%
N#C/C(=C\c1ccc(O)c(O)c1)C(=O)NCc1ccccc1,95.1%
Cn1nc2c3c(cccc31)C(=O)c1ccccc1-2,94.6%

# Series 3
# SMILES: O=S(=O)(NC1CCC(c2cc(F)ccc2F)(S(=O)(=O)c2ccc(Cl)cc2)CC1)C(F)(F)F (stereo not drawn)
# Observed: cell-free assay
# Method: competition with immobilised ligand
# Concentration: 1 µM
target,remaining binding [%]
"Serine/threonine-protein kinase 25 (STK25, Homo sapiens, UniProt O00506)",100
"Tyrosine-protein kinase ABL1, phosphorylated (ABL1, Homo sapiens, UniProt P00519, F317L)",90
"Dual specificity mitogen-activated protein kinase kinase 3 (MAP2K3, Homo sapiens, UniProt P46734)",83
"Cyclin-dependent kinase 16 (CDK16, Homo sapiens, UniProt Q00536)",68
"5'-AMP-activated protein kinase catalytic subunit alpha-2 (PRKAA2, Homo sapiens, UniProt P54646)",96
"Phosphorylase b kinase gamma catalytic chain, liver/testis isoform (PHKG2, Homo sapiens, UniProt P15735)",91
"Mitogen-activated protein kinase 12 (MAPK12, Homo sapiens, UniProt P53778)",89
"Mitogen-activated protein kinase 7 (MAPK7, Homo sapiens, UniProt Q13164)",92
"Phosphorylase b kinase gamma catalytic chain, skeletal muscle/heart isoform (PHKG1, Homo sapiens, UniProt Q16816)",80
"Ribosomal protein S6 kinase beta-1 (RPS6KB1, Homo sapiens, UniProt P23443)",100
"G protein-coupled receptor kinase 4 (GRK4, Homo sapiens, UniProt P32298)",100
"Non-receptor tyrosine-protein kinase TYK2, JH2 (TYK2, Homo sapiens, UniProt P29597)",86
"Serine/threonine-protein kinase 26 (STK26, Homo sapiens, UniProt Q9P289)",85
"Tyrosine-protein kinase ABL1, non-phosphorylated (ABL1, Homo sapiens, UniProt P00519, Q252H)",95
"Macrophage-stimulating protein receptor (MST1R, Homo sapiens, UniProt Q04912)",93
"Peripheral plasma membrane protein CASK (CASK, Homo sapiens, UniProt O14936)",68
"Fibroblast growth factor receptor 3 (FGFR3, Homo sapiens, UniProt P22607, G697C)",100
"Cyclin-dependent kinase 3 (CDK3, Homo sapiens, UniProt Q00526)",100
"Serine/threonine-protein kinase mTOR (MTOR, Homo sapiens, UniProt P42345)",94

# Series 4
# SMILES: COc1ccc2[nH]c3c4[nH]c5ccc(OC)cc5c4c4c(c3c2c1)C(=O)NC4=O
# Concentration: 1 µM
target,method,refers to,notes,baseline,remaining binding [%]
"Dual specificity mitogen-activated protein kinase kinase 3 (MAP2K3, Homo sapiens, UniProt P46734)",competitive binding panel,MEK3,,vehicle,46
"BMP-2-inducible protein kinase (BMP2K, Homo sapiens, UniProt Q9NSY1)",competitive binding,,BIKE,,76
"Phosphatidylinositol 4,5-bisphosphate 3-kinase catalytic subunit alpha isoform (PIK3CA, Homo sapiens, UniProt P42336, M1043I)",competitive binding panel,,,vehicle,95
"Myosin-IIIa (MYO3A, Homo sapiens, UniProt Q8NEV4)",competitive binding panel,,,vehicle,81
"Epidermal growth factor receptor (EGFR, Homo sapiens, UniProt P00533)",competitive binding panel,,,vehicle,51
"Phosphatidylinositol 4,5-bisphosphate 3-kinase catalytic subunit alpha isoform (PIK3CA, Homo sapiens, UniProt P42336, E542K)",competitive binding panel,,,vehicle,92
"Serine/threonine-protein kinase tousled-like 1 (TLK1, Homo sapiens, UniProt Q9UKI8)",competitive binding panel,,,vehicle,100
"Bone morphogenetic protein receptor type-2 (BMPR2, Homo sapiens, UniProt Q13873)",competitive binding panel,,,vehicle,93
"Mitogen-activated protein kinase kinase kinase 20 (MAP3K20, Homo sapiens, UniProt Q9NYL2)",competitive binding panel,ZAK,,vehicle,100
